Experimental data collected from several papers.
Numbered parts are unrelated; each lists some results of a single study. Positions count from the first letter of the parent shown.

Series 1
Target: RNA binding protein fox-1 homolog 2, RRM domain, GST-SBP tag (RBFOX2, Homo sapiens, UniProt O43251-10, residues 100-194)
Technique: RNA Bind-n-Seq
Form: RNA
Matrix: in vitro
Tested at: 365 nM
Setting: natural RNA segment, single round, ends assumed
Reference: no-protein control
Reading: higher = stronger binding
Quantity: RBNS enrichment (R)
All sequences stand within: GGGAGUUCUACAGUCCGACGAUC … UGGAAUUCUCGGGUGCCAA
Residues (chain): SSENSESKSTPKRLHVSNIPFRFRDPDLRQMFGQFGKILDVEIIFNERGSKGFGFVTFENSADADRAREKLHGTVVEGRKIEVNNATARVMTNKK
CAGGACAGAGAGAAGGUCUACUGUUCAUGGGGAUUAGGCUUAUAGGAAUGUUAGUACCAAAUUUCUACAUGUGAGCUUUGGGGGCCAGGUCCUAGAGAGCCCAAGUGGGA: 1.8
CAGCUUCUACAACAAUCCCCACAAAAGAUGAACAGCCAUUAGAAGCCUCCCCUCCUUUUGAUGCUCAGCCCACUGUGAAGAGUGAGCUUGUUUUGUAAGCCACAUUGGUU: 0.321
CAGGGAUUCAUAGAGUUCCGGGCCUGGGAUUCUCCCAGCUGCGCCAUAGGUCAUCCUCAACAACCCAGAGGGUCCCUGCUCUGACAUCCUAGUCCCCGUGAGCCCUGCAG: 0.261
CCUGAGCGAGUGUGUGAGCAUGCGGGGACAUGGGUGUGUAUGGCACACAUAGGUGCGUGUGUGUCUUUUGUAUUUUUUCUCCUCCAAGGAGCUGUGUCAGUGUGGACGUU: 7.39
GGCUGUUAACCUAUGAUUGUAAAGUAGCUGUAAGAAUUUCCCAGUGAAAUAAAAAAAAAUUUUAAGUGUUCUCGGGGAUGCAUAGAUUCAUCAUUUUCUCCACCUUAAAA: 0.632
UGAGUCAAGCUGGCCAUGAACGCGUACACUUCAGUUCAGCAGGAUGGGCUGGAGAGCCUCUCUGUGCAGCGGUGUGGGGUGAGCCCUGCUGUGGCCUCCUUGUGGUGGUC: 0.559
AAAGCUCUCUCUGAAUGUACUGUGUGACAAUGCAUCAUGCAUGAACCUUCGGUCAGGGAUGUCGUUGGGGAAGUGACUUCAAAAGUAUUCAAAAUUUGACAUGCUGUUUG: 0.401
UUCCAUUUUGCACUUGCACUAUUGAACAUGACCCUGCCAGAAAUGCAAAGGGAAUGAAAUCCUGAAGCUCAGAGUGAAGUUCAAACCACGGCGUCCCGCAGAGCCUAGUC: 1
UUUCUUGGAAGUAGUUUGAUUGUUGAGAGAGACCUUUGAUCUGCAGUGUAAAUCUACCAGUCAUGGGCCAGAAGGGCAAAAGCCCAGCUUUCUCUUUGGAAAGACUCAGG: 0.227
AAGGCUGGCAUCAUCCUAUUUCCCACAGGCUAACCCAAGGGAUGCUCUGUGCCUUUCCUGGGGAGGGAAGGGGAUGAACUGGUAGAUUUGAAAGCAGUAUGGCUUCUUCU: 0.247
GAGAGGCACUCAGAAUCCCCUGUAUGGAUGGAAGCCACACCCCCAAAGCCUCUCCAGCUAGCUGGGGCUCCUCCCCCUUCUGAGAGACUUGCGCUCCCGCAGGGAACACA: 0.466
GACGAUAUACCAGCCCUCACCCAGGUUUUAAAAAAGCACUGGUAGGCAUAGAAUAGGUGCUCAGUAUAUGGUCAGUAAAUGUUCUAUUGAUUAUCAAUCAGUGAAAAAAG: 0.295

Series 2
Target: RING finger protein unkempt homolog, zinc fingers 1-6, GST-SBP tag (UNK, Homo sapiens, UniProt Q9C0B0, residues 30-357)
UniProt Q9C0B0, sequence (30-357, looked up): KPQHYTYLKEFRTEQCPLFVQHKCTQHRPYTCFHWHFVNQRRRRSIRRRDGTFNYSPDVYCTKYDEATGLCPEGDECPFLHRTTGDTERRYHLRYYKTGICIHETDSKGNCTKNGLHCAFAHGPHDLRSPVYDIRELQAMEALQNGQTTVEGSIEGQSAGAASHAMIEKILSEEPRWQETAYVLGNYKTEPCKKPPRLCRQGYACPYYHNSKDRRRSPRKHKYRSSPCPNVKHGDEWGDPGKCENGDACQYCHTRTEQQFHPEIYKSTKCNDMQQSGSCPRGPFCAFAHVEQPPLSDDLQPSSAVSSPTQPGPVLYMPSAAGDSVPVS
Technique: RNA Bind-n-Seq
Form: RNA
Matrix: in vitro
Tested at: not given
Setting: RNA with constant flanks, human-mouse chimeric sites, ends assumed
Reference: input RNA pool
Reading: higher = stronger binding
Quantity: bound/input enrichment
All sequences stand within: GGGAGUUCUACAGUCCGACGAUC … CAACAGAGGAUUGAGCAUCA
GAUCAUGAACCACCAUCAGAAAUGAAGAUGAGAUUACCCAAGACGAGCAAAACAGCUGCGCUACAGAAAAAGUAAACUAACCUUGCAGAGUUCCUUAAUGAAGAUACAAGUUAAGAGAGC: 0.216 ratio
UCUUAACUUAUUCAUUUAACUUAUUUUUAUAGCUAGAUAAAUAUUGUUAGUCUUAGACAAUAGCUCACAUUUUUUGAGAAGCAUGCCCUCCCUGUCCAUUGGGCCCACAAUAACACUCAG: 16.5 ratio
AAAGAACCUCUCUCUGAAGAAGAGGAAGAAGACAAUGAUGAUGUUGAACCCAUUUCUGAAUUUCGAUUUGUGCCCAGUGAUAAGUCAGCAUUGGAGGCAAUGUUCACAGCAAUGUGUGAG: 0.188 ratio
AGAUUCCCCCUCCUGAGGCCUUCUCCAAAGUUGGAGUCUCUUAUAGAUGCCUCAUCCCCUGUUAGCGUUUUAGUUUGGACCACCCAGCCUUGGACAAUUCCCGCCAACCAGGCAAUUUGC: 1.75 ratio
CAACCUCAGAGCCCUGACUUCCUGGAUAUUACCAACCCUAAAGCGGUAUUAGAAAAUGCAUUGAGAAACUUCGCCUGUCUGACGACUGGAGAUGUGAUUGCUAUCAACUACAAUGAGAAG: 0.408 ratio
CUGGCCUGGCCCUCCCCUCUAGUGACCUUUCGUAUAGUAACUGUCAGUGCAUCAGAUACUUUCAGCUGCAACUCCCUACUGGGUGGGGCACCCAUUUCAGGCAGAAGGUUUUGGUACCCU: 5.23 ratio
CUGUGACCACAAGAUCCUGAAGUUUGAGCAGCUGAAGUUGACUCCCUCUCCUUGCCUGAACCCCCCCCCACUGCCCCUUGAGUCCACAGUGUCGGCUGAGAUGUUGCCUCUGCACGGUUC: 0.896 ratio
CUGGGUAUCAUCUCUCGUGCUGUUAGACACCUGUUCAAGAGUAUUGAUGAGAAAAAGACCUCAGCGAUUAAAAACGGGCUGCCCCCUCCAGAUUUUAAAGUGAAUGCCCAGUUCCUAGAG: 0.335 ratio
GGAAGUACAAUGAUGGAAAUAGAUGGCGACAAAGGCAAGCAGGGCGGGCCCACCUACUACAUAGACACCAAUGCCCUCCGCGUGCCCAGGGAGAACAUGGAGGCCAUCUCACCACUCAAG: 0.237 ratio
UAAAUUAGGGCUGCCGUUUUCUGUUUCUCCCUGGGCUGCGGAAAGCCAGAAGAUUUUAUCUAGUUUGUACAAGGCUGCUGGAGCUUGCUCUUUUUUUCCACGAGGGUGUUUUUGGCUGCA: 0.854 ratio
CUGGCCUGGCCCUCCCCAGGGGCCUCCUUUCGUAUAGUCACUGCUUCUGCAUCAGAUACUUUCAGCUGCAACUCCCUACUGGGUGGGGCACCUAUCUGAGGCAGGGUGUUUUGGUACCCU: 0.229 ratio

Series 3
Target: Ras GTPase-activating protein-binding protein 1, RRM domain (G3BP1, Homo sapiens, UniProt Q13283)
UniProt Q13283, sequence (whole entry, looked up): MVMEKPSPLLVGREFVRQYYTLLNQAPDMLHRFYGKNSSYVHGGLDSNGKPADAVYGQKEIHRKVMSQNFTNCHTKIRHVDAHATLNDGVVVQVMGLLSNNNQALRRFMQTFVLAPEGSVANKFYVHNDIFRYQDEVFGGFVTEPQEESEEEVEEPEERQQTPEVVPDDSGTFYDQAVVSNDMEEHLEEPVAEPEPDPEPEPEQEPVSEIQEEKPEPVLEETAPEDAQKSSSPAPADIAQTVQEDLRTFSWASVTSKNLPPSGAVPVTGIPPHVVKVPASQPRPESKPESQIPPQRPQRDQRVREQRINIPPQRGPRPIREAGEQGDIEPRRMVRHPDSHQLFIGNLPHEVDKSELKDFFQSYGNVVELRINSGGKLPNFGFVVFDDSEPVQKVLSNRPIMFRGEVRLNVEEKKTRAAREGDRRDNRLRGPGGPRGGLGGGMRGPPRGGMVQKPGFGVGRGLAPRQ
Technique: RNA Bind-n-Seq
Form: RNA
Matrix: in vitro
Tested at: 1 µM
Setting: whole 134-nt RNA, ends assumed
Together with: 150 mM KCl
Reference: input library
Reading: higher = stronger binding
Quantity: log2 enrichment
All sequences stand within: GGGAGUUCUACAGUCCGACGAUC … UGGAAUUCUCGGGUGUCAAGG
CAAGUCCUGUGCUACACAUCGUAUGUACCGAAUCGGAAAAGGGAAAAGGAAAAGGAAAGUAUUAUGUUACGCCGUUCGGAUCUGCACUUC: -0.0699
GUGAAUCAAAAACUCUGGUUUUAAGCAACCUCUCCUACAGUGCAACAGAAGAAACUCUUCAGGAAGUAUUUGAGAAAGCAACUUUUAUCA: 0.123
ACCAUGCAGGUGGGCAUCUUUGGGAAGUGGGGCAAGCGGGGGAUAGGGAGGGGGGUAACACUUUGGGAACAGGUGGUCCCAGGUCGUUUC: -0.317
UCAAGUCCUGUGCUACACAUCGUAUGUACCGAAUCGGGGCCGGGCCGGGCCGGGGAAAGUAUUAUGUUACGCCGUUCGGAUCUGCACUUC: -0.88
CACAGACAACACGCACCCACACAAACACAGAGGGAAGGGGUUGGGAUGGGGACAGGGUGCACAGCAGGGCGGGGUAGGACCCCAGCCCCU: -0.123
CCUGUGCUACACAUCGUAUGUACCGAAUCGGGGUUUUUUUGGGGAGGGGUUUUUUUGGGGAAAGUAUUAUGUUACGCCGUUCGGAUCUGC: 0.4
CUGUGCUACACAUCGUAUGUACCGAAUCGGGCCCCCCCGGGCCCCCCCGGGGCCCCCCCGGAAAGUAUUAUGUUACGCCGUUCGGAUCUG: -0.613
UAACUUUAGAGGAGGAUCUGAUGGAUAUGGCAGUGGACGUCGAUUUGGGGAUGGCUAUAAUGGGUAUGGAGGAGGACCUGGAGGUGGCAA: -0.321
CCUGUGCUACACAUCGUAUGUACCGAAUCGGGGAAAAAAGGGAAAAAAGGGAAAAAAGGGGAAAGUAUUAUGUUACGCCGUUCGGAUCUG: 0.0194
CUGUGCUACACAUCGUAUGUACCGAAUCGGAAAAAAAGGGGAAAAAAAGGGAAAAAAAGGGAAAGUAUUAUGUUACGCCGUUCGGAUCUG: 0.143
CAAGUCCUGUGCUACACAUCGUAUGUACCGAAUCGGAAAAAGGAGGUUUUUUUGGAAAGUAUUAUGUUACGCCGUUCGGAUCUGCACUUC: -0.0125
UCCUGUGCUACACAUCGUAUGUACCGAAUCGGGAAAAAAAGGGAAAAAAAGGGUUUGGGAAAGUAUUAUGUUACGCCGUUCGGAUCUGCA: -0.0144
CCUGUGCUACACAUCGUAUGUACCGAAUCGGUUUUUUUGGUUUUUUUGGUUUUUUUGGGGAAAGUAUUAUGUUACGCCGUUCGGAUCUGC: -0.339
UAGUAACAGGGGUGAAGAUGCCUUUUGUGAUCCUGAAGAUGAAUGGGAACCCGACAUUACAGAUGCACCAGUUUCUUCACUUUCUAGAAG: -0.228

Series 4
Target: CCND2, cyclin fold, Cln2 fusion (human)
Technique: yeast growth competition, sequencing
Matrix: yeast
Setting: weak parent motif
Reference: not given
Reading: higher = stronger binding
Quantity: normalised enrichment score
Parent: SAMHD1 docking peptide (human); ASKSRVQLFKDDP; partner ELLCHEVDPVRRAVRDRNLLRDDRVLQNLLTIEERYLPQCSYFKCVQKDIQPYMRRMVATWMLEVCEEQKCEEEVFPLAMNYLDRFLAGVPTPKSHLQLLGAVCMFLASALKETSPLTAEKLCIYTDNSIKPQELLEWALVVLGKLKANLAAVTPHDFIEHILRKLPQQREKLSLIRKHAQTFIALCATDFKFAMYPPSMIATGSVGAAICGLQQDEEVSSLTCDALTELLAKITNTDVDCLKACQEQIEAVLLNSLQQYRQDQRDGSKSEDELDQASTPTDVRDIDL
L8P: 0.383
V6K: 0.294
R5E: 0.171
D12P: -0.125
S4P: 0.00994
V6M: 0.314
S4K: -0.0469
V6T: 0.183
V6H: -0.0837
V6Y: 0.155
K10S: 0.385
K3C: 0.0914
F9Y: -0.131
F9W: 0.358
F9T: 0.303
D12S: -0.09
D12M: -0.0165
L8M: 0.0468
K3D: 0.262
R5M: -0.135
S2Y: 0.126

A few entries again (series 1):
CCUGAGCGAGUGUGUGAGCAUGCGGGGACAUGGGUGUGUAUGGCACACAUAGGUGCGUGUGUGUCUUUUGUAUUUUUUCUCCUCCAAGGAGCUGUGUCAGUGUGGACGUU: 7.39
UUCCAUUUUGCACUUGCACUAUUGAACAUGACCCUGCCAGAAAUGCAAAGGGAAUGAAAUCCUGAAGCUCAGAGUGAAGUUCAAACCACGGCGUCCCGCAGAGCCUAGUC: 1
UUUCUUGGAAGUAGUUUGAUUGUUGAGAGAGACCUUUGAUCUGCAGUGUAAAUCUACCAGUCAUGGGCCAGAAGGGCAAAAGCCCAGCUUUCUCUUUGGAAAGACUCAGG: 0.227
GGCUGUUAACCUAUGAUUGUAAAGUAGCUGUAAGAAUUUCCCAGUGAAAUAAAAAAAAAUUUUAAGUGUUCUCGGGGAUGCAUAGAUUCAUCAUUUUCUCCACCUUAAAA: 0.632
GAGAGGCACUCAGAAUCCCCUGUAUGGAUGGAAGCCACACCCCCAAAGCCUCUCCAGCUAGCUGGGGCUCCUCCCCCUUCUGAGAGACUUGCGCUCCCGCAGGGAACACA: 0.466
AAGGCUGGCAUCAUCCUAUUUCCCACAGGCUAACCCAAGGGAUGCUCUGUGCCUUUCCUGGGGAGGGAAGGGGAUGAACUGGUAGAUUUGAAAGCAGUAUGGCUUCUUCU: 0.247
AAAGCUCUCUCUGAAUGUACUGUGUGACAAUGCAUCAUGCAUGAACCUUCGGUCAGGGAUGUCGUUGGGGAAGUGACUUCAAAAGUAUUCAAAAUUUGACAUGCUGUUUG: 0.401
